Assay results of several laboratories.
UCHL1: Ubiquitin carboxyl-terminal hydrolase isozyme L1 (UCHL1, Homo sapiens, UniProt P09936)
UniProt P09936, sequence (whole entry, looked up): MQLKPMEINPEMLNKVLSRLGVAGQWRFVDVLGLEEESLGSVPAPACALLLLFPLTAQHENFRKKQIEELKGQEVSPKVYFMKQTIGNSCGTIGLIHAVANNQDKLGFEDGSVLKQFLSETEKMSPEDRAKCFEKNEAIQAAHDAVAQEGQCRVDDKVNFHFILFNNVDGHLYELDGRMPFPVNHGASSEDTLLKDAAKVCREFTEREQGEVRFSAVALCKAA

The inhibition of `c1ccc2c(NCC3CCCO3)nc(Nc3ccncc3)nc2c1` (centres unmarked) is reported as 53.5% (Trypanosoma cruzi; mRNA translation, measured: Renilla luciferase reporter; cell-free translation extract; 40 µM, 2 h).
The selectivity index of `CO[C@H]1C[C@@H]2CC[C@@H](C)[C@@](O)(O2)C(=O)C(=O)N2CCCC[C@H]2C(=O)O[C@H]([C@H](C)C[C@@H]2CC[C@@H](O)[C@H](OC)C2)CC(=O)[C@H](C)/C=C(\C)[C@@H](O)[C@@H](OC)C(=O)[C@H](C)C[C@H](C)/C=C/C=C/C=C/1C` is reported as 2 (Trypanosoma cruzi; Vero, Tulahuen β-galactosidase; baseline: Vero CC50 over T. cruzi IC50).
For `O=C(Cn1ccnc1[N+](=O)[O-])NCc1ccccc1`, the inhibition was 64% (Trypanosoma cruzi; trypomastigote release; CHO; 5 µM).
The selectivity index of `CO[C@H]1/C=C/O[C@@]2(C)Oc3c(C)c(O)c4c(c3C2=O)C2=NC3(CCN(CC(C)C)CC3)NC2=C(NC(=O)/C(C)=C\C=C\[C@H](C)[C@H](O)[C@@H](C)[C@@H](O)[C@@H](C)[C@H](OC(C)=O)[C@@H]1C)C4=O` is reported as 2.4 (Trypanosoma cruzi; Vero, Tulahuen β-galactosidase; baseline: Vero CC50 over T. cruzi IC50).
`Cc1ccc(Cn2cc(C(=O)NN)c(=O)c3cc(Oc4ccccc4)ccc32)cc1` — result for EC50: “inactive” (Trypanosoma cruzi; parasite growth; MRC-5 host cells).
With `Cc1cc(C)c(C(N)=O)c(SCC(=O)c2ccc(F)cc2)n1` the EC50 was 12 µM (Trypanosoma cruzi; MRC5, Tulahuen, beta-galactosidase; intracellular amastigotes).
`COc1ccccc1Nc1nc(NCC2CCCO2)c2ccccc2n1` (centres unmarked) has an inhibition of 59.1% (Trypanosoma cruzi; mRNA translation, measured: Renilla luciferase reporter; cell-free translation extract; 40 µM, 2 h).
For `Cc1cc(C)c(C#N)c(SC2COc3ccccc3C2=O)n1` (centres unmarked), the EC50 was 4.83 µM (Trypanosoma cruzi; MRC5, Tulahuen, beta-galactosidase; intracellular amastigotes).
`Cc1ccc(NC(=O)C2(CNC(=O)C(C)Cl)CCCC2)cc1C` (centres unmarked) gave a labelling of 10.4% (UCHL1; covalent, intact protein LC-MS; 12.5 µM).
For `CSC1=NCc2c([nH]c3ccccc23)S1`, the IC50 was 11.3 µM (Trypanosoma cruzi; parasite growth, [3H]uracil incorporation; rat L6E9 myoblasts, amastigote; 72 h).
`Cc1cc(C)c(C#N)c(SCC(=O)N2CCOCC2)n1` has an EC50 of 49 µM (Trypanosoma cruzi; MRC5, Tulahuen, beta-galactosidase; intracellular amastigotes).
The selectivity index of `O=C(Cn1ccnc1[N+](=O)[O-])NCc1ccccc1` is reported as greater than 89.7 (Trypanosoma cruzi; intracellular amastigote growth; Vero, Tulahuen, DTU VI; baseline: Vero TC50 over amastigote IC50).
With `Cc1cc(C)c(C#N)c(SCc2ccccc2)n1` the EC50 was 36.8 µM (Trypanosoma cruzi; MRC5, Tulahuen, beta-galactosidase; intracellular amastigotes).
The selectivity index of `CO[C@H]1/C=C/O[C@@]2(C)Oc3c(C)c(O)c4c(O)c(c(/C=N/N5CCN(C6CCCC6)CC5)c(O)c4c3C2=O)NC(=O)/C(C)=C\C=C\[C@H](C)[C@H](O)[C@@H](C)[C@@H](O)[C@@H](C)[C@H](OC(C)=O)[C@@H]1C` is reported as 3.6 (Trypanosoma cruzi; Vero, Tulahuen β-galactosidase; baseline: Vero CC50 over T. cruzi IC50).
For `Cl.Oc1ccc(Nc2nc(NCC3CCCO3)c3ccccc3n2)cc1` (centres unmarked), the inhibition was 57.6% (Trypanosoma cruzi; mRNA translation, measured: Renilla luciferase reporter; cell-free translation extract; 40 µM, 2 h).
The EC50 of `CC(=O)Oc1ccccc1C(=O)CSc1nc(C)cc(C)c1C#N` is reported as 1.49 µM (Trypanosoma cruzi; MRC5, Tulahuen, beta-galactosidase; intracellular amastigotes).
With `Cl.OCCNc1nc(NCC2CCCO2)c2ccccc2n1` (centres unmarked) the inhibition was 38.2% (Trypanosoma cruzi; mRNA translation, measured: Renilla luciferase reporter; cell-free translation extract; 40 µM, 2 h).
`Cc1cc(C)c(C#N)c(SCC(N)c2ccccc2)n1` (centres unmarked) has an EC50 of 19.5 µM (Trypanosoma cruzi; MRC5, Tulahuen, beta-galactosidase; intracellular amastigotes).
`CC1=C(/C=C/C(C)=C/C=C/C(C)=C/C=C/C=C(C)/C=C/C=C(C)/C=C/C2=C(C)CCCC2(C)C)C(C)(C)CCC1` gave a selectivity index of 2.8 (Trypanosoma cruzi; Vero, Tulahuen β-galactosidase; baseline: Vero CC50 over T. cruzi IC50).
The labelling of `Cc1cc(C)nc(N(C#N)CN2C(=O)c3ccccc3S2(=O)=O)n1` is reported as 12% (UCHL1; covalent, intact protein LC-MS; 12.5 µM).

Repeated from above:
`Cc1ccc(NC(=O)C2(CNC(=O)C(C)Cl)CCCC2)cc1C` (centres unmarked) gave a labelling of 10.4% (UCHL1; covalent, intact protein LC-MS; 12.5 µM).
